Assay results pooled from the literature.
Parts stem from different laboratories: compare values within a part only.

Sample 1
Target: RNA binding protein fox-1 homolog 2, RRM domain, GST-SBP tag (RBFOX2, Homo sapiens, UniProt O43251-10, residues 100-194)
Method: RNA Bind-n-Seq
Molecule type: RNA
Medium: in vitro
Concentration: 365 nM
Notes: natural RNA segment, single round, ends assumed
Baseline: no-protein control
Reading: higher = stronger binding
Construct (chain): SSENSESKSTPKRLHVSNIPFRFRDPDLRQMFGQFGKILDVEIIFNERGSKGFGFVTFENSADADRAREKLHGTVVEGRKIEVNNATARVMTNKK
Sequence | RBNS enrichment (R)
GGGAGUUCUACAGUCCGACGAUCAGACUGACAUGAUAAAAUAUCAUGUUCCUAAUCUGUUGUCUCAGAUAAGUGACCAAGACGGGACUUUCCACAUUUUAGUCUACAUUCUAAUCUUAAAGGAAUAAAGCACUUGGAAUUCUCGGGUGCCAA | 0.434
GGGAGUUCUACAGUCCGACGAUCACAUGGUGGUGGAAGGUAGAAAUCUUUGGGAUACUUAGACUUCAAGUCUUUUACAAGAGGGACAACCCUAUUUUGGGAAACAAUAUCUCAUGGGAAGAAAACUGUACACAUGGAAUUCUCGGGUGCCAA | 0.267
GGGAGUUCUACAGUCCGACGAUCAACAGAUUUCUUUUUCUUACUUUUUUUCCCCAUGAUCUAGAAACACAUGCCAAGAUUCUCAUGAGUUUUCUUACUUUGUCAUCCAUGUUCUUUUUCUAUUUGUAGGUCAAUGGAAUUCUCGGGUGCCAA | 0.71
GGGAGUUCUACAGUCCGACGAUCCCUCCAGCCCUUCACUUCCCACUGAGGUUGUCUCUUUACUGCCUGGCAUGACAUCUAAAAGCUCACUGCCUAUGCAGGGCUCACUCCCCACCAUCCGGAUGGCCUCCCACUGGAAUUCUCGGGUGCCAA | 0.707
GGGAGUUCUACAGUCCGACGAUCAGACUAGGUAUCAGAUUCCUUUUGCAGUGGGAGGUGUAUAUAUCGUAUUUUGGUAUAGAGUAGGACCCAAGCUUCAUGCAUCUGUAUUUGGUAUAUGUCAAUGACGUGGAUGGAAUUCUCGGGUGCCAA | 0.713
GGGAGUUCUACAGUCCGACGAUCGUAAAUUUGUAUUGUCUCAAUGUACAGUUUAACAGGGAUAGAGGGGAAAUAAUGUCCAUGCCAUUGUGUGUGGAAGAUUUACAGCUAAGCUGUAGUUGCAGAGUACAUGUUGGAAUUCUCGGGUGCCAA | 0.56
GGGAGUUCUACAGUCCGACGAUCGGAUGCCCACCCCUGCUGCCGCCACUGGCUGUGCCUCCCCCGCCACCUGUGUGUUCUUUUGAUACAUUUAUCUUCUGUUUUUCUCAAAUAAAGUUCAAAGCAACCACCUGUGGAAUUCUCGGGUGCCAA | 0.343
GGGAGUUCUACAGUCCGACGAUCUAAGGUAACUUUUAAAAAACACCUUUUAUAGGUGGAUCCAGCAGUCUGGCAACGCCCACAGUUACCACAACACAGAAAACUGAUCGUGCUAUAAAAUGGACGCUAAACUAUGGAAUUCUCGGGUGCCAA | 0.245
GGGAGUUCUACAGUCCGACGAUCGGAAUGAGGCUGUUGGGGUGUCCUAACCCAGGUCCUUGUGCUUCACUGACAGUUUGCUCACAGGUUAUGUUUGAAUGUCUUAUGGAAGCAGACGUUAUUUUCCGUGAUUCUGGAAUUCUCGGGUGCCAA | 2.06
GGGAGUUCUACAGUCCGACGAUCACACGAGCCCAUUUUUACCAAGAUUUGAUCAGUGUCUUUACUGAGCUGGAAGCCUCUGAAAGUUAUUAAAGGACAGAAUCCAAAAGAAUGCCUUUAAUUCUUGUCUGAGAUGGAAUUCUCGGGUGCCAA | 0.25
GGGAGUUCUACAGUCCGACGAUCACAGAGUUAUUUAUUUAUAGAAAUUUUGGUACAGUGUACAUUGAAAACAUGUAAAAUAUUGAAGUGUCUAACAAAUGGCAUAAAGUGUCUUUAAUAAAGGUUCAUUUAUAUGGAAUUCUCGGGUGCCAA | 0.548
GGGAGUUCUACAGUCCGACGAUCGAAUAUUUGCUUAAAAUUGCUAGUGAUUUCAUUACCAAGUUACUUGAAAAAAUGUUCUAUAUGCAUUUAAUUCUGAAAUCAGUCUACCAAGGGGCUGCUAGUAUAUGUCAUGGAAUUCUCGGGUGCCAA | 1.02

Sample 2
Target: Protein C-ets-1 (ETS1, Homo sapiens, UniProt P14921, residues 1-441, full length assumed)
Method: protein-binding microarray
Molecule type: double-stranded DNA, one strand shown
Medium: in vitro
Concentration: not given
Notes: k-mer, scored over probes, only values ≥0.25
Reading: higher = stronger binding
Residues (chain): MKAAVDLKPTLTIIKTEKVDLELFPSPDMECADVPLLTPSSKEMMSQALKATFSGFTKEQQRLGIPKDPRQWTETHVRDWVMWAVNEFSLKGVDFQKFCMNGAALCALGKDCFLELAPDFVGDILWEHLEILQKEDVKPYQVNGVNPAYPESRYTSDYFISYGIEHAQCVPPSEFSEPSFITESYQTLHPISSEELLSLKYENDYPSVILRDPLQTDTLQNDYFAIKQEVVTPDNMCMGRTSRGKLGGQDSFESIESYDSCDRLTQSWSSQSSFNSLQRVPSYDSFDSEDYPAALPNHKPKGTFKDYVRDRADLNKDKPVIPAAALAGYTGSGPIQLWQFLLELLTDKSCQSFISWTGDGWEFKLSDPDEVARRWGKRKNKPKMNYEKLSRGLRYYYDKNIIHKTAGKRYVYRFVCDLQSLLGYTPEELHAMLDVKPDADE
Sequence | E-score
CGTTTCCC | 0.372
ATTTCCTC | 0.43
GAAGTAAC | 0.271
CCGGACGC | 0.463
CACCTTCC | 0.32
CGGATGAA | 0.404
ATCCGGCC | 0.462
CCGTCCGC | 0.29
TCCGTTCA | 0.294
CCGGGAAA | 0.371
CCCGCCGG | 0.271
AAAGGAAA | 0.406
GGATAGCC | 0.276
GGAAAACA | 0.312
GAGGGGAA | 0.318
ATTCCGGG | 0.293
GGATATCA | 0.313

Sample 3
Target: RING finger protein unkempt homolog, zinc fingers 1-6, GST-SBP tag (UNK, Homo sapiens, UniProt Q9C0B0, residues 30-357)
Sequence of UniProt Q9C0B0 (30-357, looked up): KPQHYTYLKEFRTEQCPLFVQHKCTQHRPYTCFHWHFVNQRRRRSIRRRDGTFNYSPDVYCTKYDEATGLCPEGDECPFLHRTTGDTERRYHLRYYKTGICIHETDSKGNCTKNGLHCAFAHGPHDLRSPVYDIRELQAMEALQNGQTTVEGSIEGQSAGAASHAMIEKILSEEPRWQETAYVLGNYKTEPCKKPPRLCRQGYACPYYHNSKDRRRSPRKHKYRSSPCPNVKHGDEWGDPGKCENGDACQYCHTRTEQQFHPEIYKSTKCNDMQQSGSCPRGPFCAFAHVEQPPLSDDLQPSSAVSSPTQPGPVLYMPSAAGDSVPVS
Method: RNA Bind-n-Seq
Molecule type: RNA
Medium: in vitro
Concentration: not given
Notes: RNA with constant flanks, human-mouse chimeric sites, ends assumed
Baseline: input RNA pool
Reading: higher = stronger binding
Sequence | bound/input enrichment
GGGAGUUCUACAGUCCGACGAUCGGCCUGGACCUUCCUGGGGCUAGUACAAAUAGCGGCAGUGGAGGCUCGAGAGGAAAGUUUGUUAGUGGAGGCAGUGGUAGAGGCCGUAUGUACGCUCCCUUUACUCGAUAGAUGUGUUCUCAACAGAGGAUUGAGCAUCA | 0.224 ratio
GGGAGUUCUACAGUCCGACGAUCCAGCCUCAGAGCCCAGACUUCCUGGAUAUUACCAACCCUAAAGCGGUAUUAGAAAACGCAUUGAGAAACUUCGCCUGUCUGACGACUGGGGAUGUGAUUGCUAUCAACUACAAUGAGAAGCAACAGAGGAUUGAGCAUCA | 0.343 ratio
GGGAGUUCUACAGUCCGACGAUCAAUUUCCUGUCAUACUUUUUAGACAUUCACAUCAGACUUACAGAGCACCUGGCCACAUUCUAGUUUUGUGUUAUUUCUAAGCCUUUUAUAUGAUCAAAUGAGAACACUGCUUAACUAAUGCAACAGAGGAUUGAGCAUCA | 0.898 ratio
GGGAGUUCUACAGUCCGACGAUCCCCCAAUACCAUUUGCAGGUCUGGAACCUGCAUUCUUUUAAAGUUUUACAUGUAUACAUUUUAGGGCUGUAGAUUUAUUUUCCUGGUUUUGUUUUUCAUUGCUGACUUUUGAGCACAGAACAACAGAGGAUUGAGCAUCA | 2.22 ratio
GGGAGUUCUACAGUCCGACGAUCGCUGAAAAUGAAGAAGAGGCAGCUGAUGUCUGGUACAACCUGGGGCACAUAGCUGUGGGAAUCGGAGAUACAAACUUGGCCCACCAAUGCUUCAGGCUGGCUCUGGUCAACAACAACCACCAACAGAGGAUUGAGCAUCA | 0.152 ratio
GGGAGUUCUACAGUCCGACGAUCCAGCCUCAGAGCCCAGACUUCCUGGAUAUUACCAACCCUAAAGCGGUAUUAGAAAAUGCAUUGAGAAACUUUGCCUGUCUGACCACCGGAGAUGUGAUUGCUAUCAACUACAAUGAGAAGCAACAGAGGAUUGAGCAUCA | 0.291 ratio
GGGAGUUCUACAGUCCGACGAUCCUCAGAGAUGUGGCAUAUCAGUAUGUGAAAAAGGGGGCUCGAAUUUAUGUGGAAGGGAAAGUGGACUAUGGCGAGUACAUGGAUAAAAACAAUGUGAGGCGACAAGCAACAACAAUCAUACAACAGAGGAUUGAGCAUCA | 0.331 ratio
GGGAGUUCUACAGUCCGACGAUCUAAGUUAUUUUGUACAGCUUUGUAAAUUCUUAACAUUAAUUUGUAAACAUGUUUAUUUUGUUUGGGUAAUUUGGUUCAUUAAGUACAUAGCUAAGGUACAUCUUUCAUUUUUCAGUAAUUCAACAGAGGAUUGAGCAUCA | 0.514 ratio
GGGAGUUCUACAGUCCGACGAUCCUGGCCUUCUGAGCAUCAGGGGCCUCCUUUCGUAUAGUCACUGCUUCUGCAUCAGAUACUUUCAGCUGCAACUCCCUACUGGGUGGGGCACCCAUUUGAGGCAGGGUGUUUUGGUACCCUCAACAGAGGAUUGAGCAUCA | 0.297 ratio
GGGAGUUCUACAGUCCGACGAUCGAAACAUUUAAAUUUAAAGAAGCUGUUGUUUUAGGGAGUACGGACUUUCUAGAAGAUGAUAUAGAGAAAAUUGUAGAAGAACUGGGGAAAGAGUAUAAGGGCAACGCUUAUCAUUUAAUGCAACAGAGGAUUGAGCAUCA | 3.85 ratio
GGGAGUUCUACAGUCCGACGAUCAUGGAAAAGGAUUCUCUGCCCCGCUUUGUGCGCUCUGAAUUUUAUAAGGAGCUAAUCAAGUAGUCAUUUAGCCAGGCUUCCAAAAGUUGCCCUGUGAGUUGAGUUACAUCCUUUGUAGCACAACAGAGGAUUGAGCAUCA | 1.01 ratio

Sample 4
Target: Phosphate system positive regulatory protein PHO4, full length, GST-tagged (PHO4, Saccharomyces cerevisiae, UniProt P07270, residues 1-312)
Method: competition protein-binding microarray
Molecule type: double-stranded DNA, one strand shown
Medium: in vitro
Concentration: 2 µM
Notes: whole 60-bp probe, lowest competitor level
Together with: Cbf1 competitor, 0.05 µM
Reading: higher = stronger binding
Target sequence (chain): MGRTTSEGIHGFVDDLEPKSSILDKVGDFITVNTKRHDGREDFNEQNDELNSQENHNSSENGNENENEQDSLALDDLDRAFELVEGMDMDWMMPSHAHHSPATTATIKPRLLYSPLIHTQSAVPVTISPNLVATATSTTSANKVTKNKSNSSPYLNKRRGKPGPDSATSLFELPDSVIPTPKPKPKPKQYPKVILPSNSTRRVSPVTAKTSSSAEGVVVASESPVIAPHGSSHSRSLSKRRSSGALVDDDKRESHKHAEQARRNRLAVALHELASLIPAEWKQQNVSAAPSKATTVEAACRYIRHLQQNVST
Sequence | fluorescence intensity
TATGCCCATCCCAAGATCATGCCCGGGAGAGCAAATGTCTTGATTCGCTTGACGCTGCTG | 4370 a.u.
TTGGTCTACCAAATGCACCTGATTTACAAGCGGCTAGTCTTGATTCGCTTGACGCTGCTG | 3730 a.u.
CTTTCCCGATCTTGTCAGGTGGGTGTAGCACATTTGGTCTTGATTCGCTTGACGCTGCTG | 5900 a.u.
TGGAAGGAAAAAACCTTCGTGGGTAGAGGGCTCATAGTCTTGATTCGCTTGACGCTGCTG | 4250 a.u.
CGTCCTAGTGATTGCTGGGTGGGTGCCATGAGGAAGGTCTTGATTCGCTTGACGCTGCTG | 6550 a.u.
AAGCAAGAACGAAAGCACGTTCTTGAAGATCTGCATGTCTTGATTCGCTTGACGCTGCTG | 18000 a.u.
TTAAAATGGTACTGGCACGTGATGGTAGTGGCTCAAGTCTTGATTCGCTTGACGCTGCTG | 15500 a.u.
CGTCAGTTGGAGCACCATGTGTCTTCTTGAAAGGATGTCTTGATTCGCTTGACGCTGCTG | 9360 a.u.
CGGGTGAGGGGTTTGCACGTGACTCGGGTGCGGGTAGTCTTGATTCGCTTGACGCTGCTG | 14700 a.u.
CCGTATCTAGTATCGCACGCTCTTTTGCAAAAATATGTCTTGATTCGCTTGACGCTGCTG | 7430 a.u.
TCGTCGGTTTATTGTCTCGTGGTGATTTGCGTTAAAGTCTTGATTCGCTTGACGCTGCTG | 8520 a.u.
AAATTACTAAGTTGTCACTTAACTTACCCCGTATGAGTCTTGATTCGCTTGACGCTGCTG | 3080 a.u.
CATACCCAACCTTGTGAGGTGGGTGAAGATATTTGTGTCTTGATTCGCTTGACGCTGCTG | 4310 a.u.
TCGTCATTGTGGATACACGTGAGATTAATGCCTCATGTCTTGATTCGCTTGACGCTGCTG | 14700 a.u.
CTAACGAAGGTTTGTCACCGAACTTACAAGCCAAGTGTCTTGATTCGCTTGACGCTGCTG | 2790 a.u.
CGGGGTTAAGTTTGTCACGACACTTGCTTGCAGCAGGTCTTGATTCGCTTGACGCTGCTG | 4410 a.u.
TGGGAGGCACTGAAGTCCGTGCCGATTCCTCGACGCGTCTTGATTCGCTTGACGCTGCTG | 5180 a.u.
AAAGCGGTAATTTGTCACAACACTTCACATATCTATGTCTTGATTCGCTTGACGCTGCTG | 4220 a.u.
TCTCATAAAAGTGAAACCGTGACGAATGTAAGATGTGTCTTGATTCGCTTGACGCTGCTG | 6920 a.u.

A few entries again (sample 2):
Sequence | E-score
TCCGTTCA | 0.294
CCGGGAAA | 0.371
ATCCGGCC | 0.462
CGTTTCCC | 0.372
CACCTTCC | 0.32
